Measured values collected from several papers.
Protocols differ between the studies behind these lines. Several values in a cell are separate wells, animals, samples, runs or records. Numbers after ± are the reported error.
T1: dsDNA; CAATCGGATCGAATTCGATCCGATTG
Chain of UniProt P07320 (whole entry, looked up): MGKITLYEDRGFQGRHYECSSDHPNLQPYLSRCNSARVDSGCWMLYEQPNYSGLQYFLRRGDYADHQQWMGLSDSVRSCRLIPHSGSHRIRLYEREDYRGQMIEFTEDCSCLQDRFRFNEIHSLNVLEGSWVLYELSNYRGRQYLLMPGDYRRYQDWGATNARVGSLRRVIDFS
Chain of UniProt P25787 (whole entry, looked up): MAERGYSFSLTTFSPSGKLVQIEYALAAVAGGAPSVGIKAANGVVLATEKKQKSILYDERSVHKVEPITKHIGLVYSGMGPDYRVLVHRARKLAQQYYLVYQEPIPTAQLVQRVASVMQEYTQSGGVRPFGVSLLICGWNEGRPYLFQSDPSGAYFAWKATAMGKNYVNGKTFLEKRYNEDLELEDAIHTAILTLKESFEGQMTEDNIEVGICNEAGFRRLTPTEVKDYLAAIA
Chain of UniProt P60900 (whole entry, looked up): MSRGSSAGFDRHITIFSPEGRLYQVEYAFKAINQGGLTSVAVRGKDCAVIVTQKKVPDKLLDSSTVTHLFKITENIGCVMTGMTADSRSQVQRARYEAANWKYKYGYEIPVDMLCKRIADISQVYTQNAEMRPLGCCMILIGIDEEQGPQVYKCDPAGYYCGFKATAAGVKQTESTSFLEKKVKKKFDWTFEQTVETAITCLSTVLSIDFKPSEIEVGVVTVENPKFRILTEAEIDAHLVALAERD
Chain of UniProt P51452 (whole entry, looked up): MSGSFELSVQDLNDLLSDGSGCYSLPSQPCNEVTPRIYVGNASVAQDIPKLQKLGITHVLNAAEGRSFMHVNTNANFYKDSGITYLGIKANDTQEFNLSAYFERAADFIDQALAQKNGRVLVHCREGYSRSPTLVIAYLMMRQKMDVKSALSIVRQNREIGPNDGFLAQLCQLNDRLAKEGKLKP
Chain of UniProt P61981 (whole entry, looked up): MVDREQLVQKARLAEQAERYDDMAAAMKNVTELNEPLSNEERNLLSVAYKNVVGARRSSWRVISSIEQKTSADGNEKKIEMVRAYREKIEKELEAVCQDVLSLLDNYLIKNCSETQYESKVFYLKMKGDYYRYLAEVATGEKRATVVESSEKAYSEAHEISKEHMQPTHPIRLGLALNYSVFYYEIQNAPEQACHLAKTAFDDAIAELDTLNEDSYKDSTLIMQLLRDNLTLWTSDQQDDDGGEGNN
Chain of UniProt Q9UH17 (whole entry, looked up): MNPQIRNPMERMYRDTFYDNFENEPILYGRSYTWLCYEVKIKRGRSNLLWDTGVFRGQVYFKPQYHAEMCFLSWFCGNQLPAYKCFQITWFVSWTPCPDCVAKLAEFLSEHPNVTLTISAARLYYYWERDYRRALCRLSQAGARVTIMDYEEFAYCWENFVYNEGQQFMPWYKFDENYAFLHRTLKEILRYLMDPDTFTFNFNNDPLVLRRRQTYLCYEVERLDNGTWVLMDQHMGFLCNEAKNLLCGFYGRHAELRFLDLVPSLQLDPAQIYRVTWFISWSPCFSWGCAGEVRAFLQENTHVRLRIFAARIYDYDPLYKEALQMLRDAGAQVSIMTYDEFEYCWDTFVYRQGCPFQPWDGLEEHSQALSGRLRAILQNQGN
Chain of UniProt P02699 (whole entry, looked up): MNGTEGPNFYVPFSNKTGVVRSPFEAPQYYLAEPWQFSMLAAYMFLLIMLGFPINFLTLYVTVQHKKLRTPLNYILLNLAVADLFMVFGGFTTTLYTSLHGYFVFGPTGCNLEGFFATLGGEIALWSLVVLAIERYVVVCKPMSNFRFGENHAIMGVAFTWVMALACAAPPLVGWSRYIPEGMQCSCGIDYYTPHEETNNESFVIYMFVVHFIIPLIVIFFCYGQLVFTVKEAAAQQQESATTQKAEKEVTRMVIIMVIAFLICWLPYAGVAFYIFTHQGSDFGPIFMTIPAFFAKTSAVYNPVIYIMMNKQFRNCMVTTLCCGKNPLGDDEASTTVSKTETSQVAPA
Chain of UniProt Q06911 (whole entry, looked up): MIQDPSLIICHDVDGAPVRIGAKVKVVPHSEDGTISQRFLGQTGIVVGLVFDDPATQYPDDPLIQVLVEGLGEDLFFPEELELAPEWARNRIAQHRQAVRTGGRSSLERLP
Chain of UniProt P16050 (whole entry, looked up): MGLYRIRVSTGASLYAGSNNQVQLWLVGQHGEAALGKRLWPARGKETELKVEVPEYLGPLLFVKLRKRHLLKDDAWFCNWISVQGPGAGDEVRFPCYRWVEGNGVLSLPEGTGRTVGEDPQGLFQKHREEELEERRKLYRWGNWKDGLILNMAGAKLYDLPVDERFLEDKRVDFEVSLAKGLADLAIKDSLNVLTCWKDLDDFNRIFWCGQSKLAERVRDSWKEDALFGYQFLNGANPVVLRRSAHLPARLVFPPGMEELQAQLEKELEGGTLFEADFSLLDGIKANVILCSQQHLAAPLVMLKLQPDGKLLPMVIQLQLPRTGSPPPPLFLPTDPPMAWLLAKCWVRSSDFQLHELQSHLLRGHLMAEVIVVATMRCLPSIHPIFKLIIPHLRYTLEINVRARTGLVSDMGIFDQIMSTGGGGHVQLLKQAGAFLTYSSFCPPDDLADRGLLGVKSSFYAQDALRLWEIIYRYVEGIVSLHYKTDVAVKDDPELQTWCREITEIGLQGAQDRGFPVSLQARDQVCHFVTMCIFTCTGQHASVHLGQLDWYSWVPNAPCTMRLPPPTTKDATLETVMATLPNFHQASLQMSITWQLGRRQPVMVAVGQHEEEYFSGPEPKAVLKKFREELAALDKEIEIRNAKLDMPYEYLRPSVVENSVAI
Chain of UniProt Q9BY41 (whole entry, unmodified, looked up): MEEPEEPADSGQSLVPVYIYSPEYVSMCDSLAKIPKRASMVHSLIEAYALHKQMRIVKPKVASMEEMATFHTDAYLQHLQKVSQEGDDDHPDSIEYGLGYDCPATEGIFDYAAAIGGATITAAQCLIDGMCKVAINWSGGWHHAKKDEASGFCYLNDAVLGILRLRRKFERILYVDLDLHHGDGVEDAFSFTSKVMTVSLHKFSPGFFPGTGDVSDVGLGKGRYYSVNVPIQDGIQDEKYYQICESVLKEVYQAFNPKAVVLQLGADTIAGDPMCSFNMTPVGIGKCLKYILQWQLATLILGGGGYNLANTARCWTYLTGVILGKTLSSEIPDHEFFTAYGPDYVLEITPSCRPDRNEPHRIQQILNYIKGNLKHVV
Chain of UniProt P32301 (whole entry, looked up): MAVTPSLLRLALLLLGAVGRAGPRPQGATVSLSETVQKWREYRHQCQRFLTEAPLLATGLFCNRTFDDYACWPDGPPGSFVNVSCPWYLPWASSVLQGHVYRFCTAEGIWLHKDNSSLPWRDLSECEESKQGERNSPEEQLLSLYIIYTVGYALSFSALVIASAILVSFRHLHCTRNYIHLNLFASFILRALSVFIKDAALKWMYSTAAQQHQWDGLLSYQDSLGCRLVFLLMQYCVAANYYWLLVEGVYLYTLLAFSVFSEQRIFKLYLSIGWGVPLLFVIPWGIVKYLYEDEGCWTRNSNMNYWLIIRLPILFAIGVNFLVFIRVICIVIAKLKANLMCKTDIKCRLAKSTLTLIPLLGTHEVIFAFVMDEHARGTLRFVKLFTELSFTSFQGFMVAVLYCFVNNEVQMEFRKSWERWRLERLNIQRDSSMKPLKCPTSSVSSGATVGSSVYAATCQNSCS
Chain of UniProt C7FF04 (whole entry, looked up): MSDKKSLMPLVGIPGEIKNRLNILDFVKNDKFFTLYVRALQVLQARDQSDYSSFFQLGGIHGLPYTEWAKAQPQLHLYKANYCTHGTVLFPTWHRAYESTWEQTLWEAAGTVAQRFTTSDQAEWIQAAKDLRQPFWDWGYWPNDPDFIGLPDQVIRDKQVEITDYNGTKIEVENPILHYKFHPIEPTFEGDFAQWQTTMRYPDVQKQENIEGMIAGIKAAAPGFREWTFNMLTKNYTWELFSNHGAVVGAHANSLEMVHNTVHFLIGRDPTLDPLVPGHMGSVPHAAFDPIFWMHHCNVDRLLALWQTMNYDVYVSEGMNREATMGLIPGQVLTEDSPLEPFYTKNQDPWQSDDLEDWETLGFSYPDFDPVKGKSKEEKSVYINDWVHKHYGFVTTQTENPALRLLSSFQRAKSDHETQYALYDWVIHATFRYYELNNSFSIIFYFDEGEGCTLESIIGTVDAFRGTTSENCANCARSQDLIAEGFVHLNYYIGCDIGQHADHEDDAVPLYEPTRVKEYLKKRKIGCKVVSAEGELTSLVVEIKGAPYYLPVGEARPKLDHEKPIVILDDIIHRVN

Compound	target	assay	system	setting	scale	endpoint	result
CC[C@H](C)[C@H](NC(=O)CNC(=O)[C@H](CCCNC(=N)N)NC(=O)[C@H](CCCCN)NC(=O)CNC(=O)[C@H](CC(N)=O)NC(=O)CNC(=O)CNC(=O)CNC(=O)[C@H](CC(C)C)NC(=O)[C@H](C)NC(=O)CNC(=O)[C@H](Cc1c[nH]c2ccccc12)NC(=O)[C@H](Cc1ccc(O)cc1)NC(=O)CNC(=O)[C@H](CCCNC(=N)N)NC(=O)[C@H](CCSC)NC(=O)CNC(=O)[C@H](CCCCN)NC(=O)[C@H](CC(N)=O)NC(=O)[C@H](Cc1ccccc1)NC(=O)[C@H](CCCCN)NC(=O)[C@@H](N)CC(N)=O)C(=O)N[C@@H](CCCNC(=N)N)C(=O)NCC(=O)N[C@@H](Cc1ccc(O)cc1)C(=O)N[C@@H](CC(=O)O)C(=O)O	ERBB2 (Homo sapiens, UniProt P04626)	binding, SPR	–	–	–	koff	0.0107 s⁻¹
CC[C@H](C)[C@H](NC(=O)CNC(C)=O)C(=O)N[C@@H](CCCNC(=N)N)C(=O)N[C@@H](CCC(=O)O)C(=O)N[C@@H](C)C(=O)N[C@H](C(=O)N[C@@H](CC(C)C)C(=O)N[C@@H](CCCNC(=N)N)C(=O)N[C@@H](C)C(=O)N[C@@H](Cc1c[nH]c2ccccc12)C(=O)N[C@@H](CCC(=O)O)C(=O)N[C@@H](CCCNC(=N)N)C(=O)N[C@@H](CCCNC(=N)N)C(=O)N[C@@H](Cc1ccc(O)cc1)C(=O)NCC(=O)N[C@@H](Cc1ccccc1)C(=O)N1CCC[C@H]1C(=O)N[C@@H](CCCNC(=N)N)C(=O)N1CCC[C@H]1C(=O)N[C@@H](CC(C)C)C(=O)N[C@@H](CCCNC(=N)N)C(=O)N[C@@H](CO)C(=O)N[C@@H](CCC(=O)O)C(N)=O)[C@@H](C)O	Antirepressor protein CarS (carS, Myxococcus xanthus, UniProt Q06911)	ITC	–	concentration not given, pH 7.5, 25 °C	–	binding enthalpy	-11.7 ± 0.3 kcal/mol
N=C(N)NCCC[C@H](NC(=O)[C@@H](N)CS)C(=O)N[C@@H](CC(N)=O)C(=O)N[C@@H](CC(N)=O)C(=O)O	PPO3 (Agaricus bisporus, UniProt C7FF04)	enzyme activity, inhibitor	–	100 µM	–	remaining activity	51.6%
NCCCC[C@H](NC(=O)[C@@H](N)CCCCN)C(=O)NCC(=O)NCC(=O)NCCCCCCCCNC(=O)c1ccc(-c2ccccn2)cc1	Calmodulin-1 (CALM1, Homo sapiens, UniProt P0DP23)	binding, quartz crystal microbalance	–	25 °C, no Ca2+	–	apparent association constant	120000 ± 10000 M⁻¹
Cc1nnc(Nc2ccc(O)cc2)[nH]c1=O	DNA dC->dU-editing enzyme APOBEC-3B, C-terminal domain (Homo sapiens, UniProt Q9UH17)	binding, 1H CPMG NMR	–	20 µM protein	–	signal attenuation	28 ± 4%
Cc1ncsc1-c1ccc([C@@H]2CCCCCCNC(=O)C[C@@H]3N=C(c4ccc(cc4)OCCCCC(=O)N[C@@H](C(C)(C)C)C(=O)N4C[C@H](O)C[C@H]4C(=O)N2)c2c(sc(C)c2C)-n2c(C)nnc23)cc1	Bromodomain-containing protein 4, long isoform (BRD4, Homo sapiens, UniProt O60885)	degrader, immunoblotting, measured: BRD4 long isoform	PC-3	100 nM, 24 h	–	degradation	94%
NC(=O)[C@@H]1CCCNC(=O)[C@H](Cc2ccc([N+](=O)[O-])cc2)NC(=O)[C@H](Cc2ccco2)NC(=O)[C@H](CC2CC2)NC(=O)C=CC(=O)N1	SRC (Homo sapiens, UniProt P12931)	enzyme activity	–	–	–	cis over trans potency ratio	~10 fold
CC[C@H](C)[C@H](NC(=O)[C@H](CCCCN)NC(=O)[C@H](C)NC(=O)[C@@H](NC(=O)[C@H](CCC(=O)O)NC(=O)[C@H](CCC(=O)O)NC(=O)[C@H](CCC(=O)O)NC(=O)[C@H](CO)NC(=O)[C@H](CC(C)C)NC(=O)[C@H](CC(=O)O)NC(=O)[C@H](CC(C)C)NC(=O)CNC(=O)[C@H](CCCNC(=N)N)NC(=O)[C@H](CC(C)C)NC(=O)[C@H](CO)NC(=O)CNC(=O)CNC(=O)CNC(=O)CCCC[C@@H]1SC[C@@H]2NC(=O)N[C@@H]21)C(C)C)C(=O)N[C@@H](CC(C)C)C(=O)N[C@@H](CC(=O)O)C(=O)N[C@@H](CCC(=O)O)C(=O)N[C@H](C(=O)N[C@H](C(=O)N[C@@H](CCCCN)C(=O)N[C@@H](CC(=O)O)C(=O)O)C(C)C)[C@@H](C)CC	Fab B11 antibody (human)	binding, biolayer interferometry	–	–	relative to: alanine mutant over wild type	Kd ratio	11
CC(=O)Nc1ccc2[nH]c(C(F)(F)F)nc2c1	DUSP3 (Homo sapiens, UniProt P51452)	ligand-observed 19F NMR	–	concentration not given, added: DUSP3 4 or 8 µM	–	binding	active
CC[C@H](C)[C@H](NC(=O)[C@@H](NC(=O)[C@H](Cc1ccccc1)NC(=O)[C@@H](N)CC(=O)O)C(C)C)C(=O)N[C@@H](Cc1ccccc1)C(=O)N[C@@H](CC(C)C)C(=O)N[C@@H](CC(=O)O)C(=O)N[C@H](C(=O)N[C@@H](CCCCN)C(=O)N[C@@H](Cc1c[nH]cn1)C(=O)N[C@@H](Cc1ccccc1)C(=O)N[C@@H](CO)C(=O)N1CCC[C@H]1C(=O)N[C@@H](CCC(=O)O)C(=O)N[C@@H](CC(=O)O)C(=O)N[C@@H](CC(C)C)C(=O)N[C@H](C(=O)N[C@H](C(=O)N[C@@H](CCCCN)C(=O)O)C(C)C)[C@@H](C)O)C(C)C	CRYGD (Homo sapiens, UniProt P07320)	covalent binder, HSQC NMR	–	concentration not given, ~24 h, 60 °C	–	complex formation	~30% and 31.8%
CC(/C=C/C(=O)NO)=C\[C@@H](C)C(=O)c1ccc(N(C)C)cc1	HDAC8 (Homo sapiens, UniProt Q9BY41)	ITC	Tris-HCl buffer	pH 7.5, 25 °C	–	ΔG	-8.6 ± 0.3 kcal/mol
COc1ccc(-c2cc(C(F)(F)F)nc(S(=O)(=O)CCCC(=O)Nc3ccc(F)cc3F)n2)cc1OC	Glucagon-like peptide 1 receptor (Rattus norvegicus, UniProt P32301)	measured: cAMP	INS-1 832/13	25 µM	relative to: basal	basal activity increase	20%
CN1CCN(CC(=O)N2N=C3/C(=C/c4ccccc4)CCCC3C2c2ccccc2)CC1 (mixture of isomers)	ALOX15 (Homo sapiens, UniProt P16050)	enzyme activity, activator	–	10 µM, added: docosahexaenoic acid 50 µM	relative to: no activator	initial rate increase	22%
CC1=C(/C=C/C(C)=C\C=C\C(C)=C\C=O)C(C)(C)CCC1	Rhodopsin, apoprotein (opsin) (RHO, Bos taurus, UniProt P02699)	–	–	pigment regenerated	–	absorption maximum	485 nm
C[n+]1c(C=Cc2ccc(N(c3ccccc3)c3ccccc3)cc2)cc(C=C2Sc3ccccc3N2CCCN2CCCC2)c2ccccc21	T1, dsDNA	competitor, fluorescence competition	–	pH 7.4, KCl 60 mM	–	binding	binds weakly
O=C(Cn1ccc2ccccc21)N(c1ccc(F)cc1)c1ccc(F)cc1	Proteasome subunit alpha type-2/Proteasome subunit alpha type-6, 20S proteasome (Homo sapiens, UniProt P25787+P60900)	proteolysis, activator, fluorogenic peptide	purified 20S proteasome	up to 30 µM, added: Suc-LLVY-AMC, Z-LLE-AMC, Boc-LRR-AMC	relative to: vehicle	maximum fold increase	4.4 ± 1.2
C=CC(C)(C)OC[C@H]1O[C@H](O[C@@H]2C3=C([C@H](C)COC(C)=O)C[C@H](O)[C@]3(C)/C=C3/[C@@H](COC)CC[C@H]3[C@@H](C)[C@H]2O)[C@H](O)[C@@H](OC(C)=O)[C@@H]1O	14-3-3 protein gamma, with p65 peptide (YWHAG, Homo sapiens, UniProt P61981)	binding, 2D fluorescence anisotropy titration	–	range over 0 to 250 µM, added: 100 nM peptide	–	cooperativity factor	5
Cn1nc(C(=O)NCc2ccc(C(=O)O)cc2)cc1-c1ccc2[nH]ccc2c1	Collagenase 3 (MMP13, Homo sapiens, UniProt P45452)	inhibitor, FRET	–	concentration not given, catalytic domain	–	enzyme activity	inactive

Some of these lines once more:
Compound	target	assay	system	setting	scale	endpoint	result
CC[C@H](C)[C@H](NC(=O)CNC(C)=O)C(=O)N[C@@H](CCCNC(=N)N)C(=O)N[C@@H](CCC(=O)O)C(=O)N[C@@H](C)C(=O)N[C@H](C(=O)N[C@@H](CC(C)C)C(=O)N[C@@H](CCCNC(=N)N)C(=O)N[C@@H](C)C(=O)N[C@@H](Cc1c[nH]c2ccccc12)C(=O)N[C@@H](CCC(=O)O)C(=O)N[C@@H](CCCNC(=N)N)C(=O)N[C@@H](CCCNC(=N)N)C(=O)N[C@@H](Cc1ccc(O)cc1)C(=O)NCC(=O)N[C@@H](Cc1ccccc1)C(=O)N1CCC[C@H]1C(=O)N[C@@H](CCCNC(=N)N)C(=O)N1CCC[C@H]1C(=O)N[C@@H](CC(C)C)C(=O)N[C@@H](CCCNC(=N)N)C(=O)N[C@@H](CO)C(=O)N[C@@H](CCC(=O)O)C(N)=O)[C@@H](C)O	Antirepressor protein CarS (carS, Myxococcus xanthus, UniProt Q06911)	ITC	–	concentration not given, pH 7.5, 25 °C	–	binding enthalpy	-11.7 ± 0.3 kcal/mol
O=C(Cn1ccc2ccccc21)N(c1ccc(F)cc1)c1ccc(F)cc1	Proteasome subunit alpha type-2/Proteasome subunit alpha type-6, 20S proteasome (Homo sapiens, UniProt P25787+P60900)	proteolysis, activator, fluorogenic peptide	purified 20S proteasome	up to 30 µM, added: Suc-LLVY-AMC, Z-LLE-AMC, Boc-LRR-AMC	relative to: vehicle	maximum fold increase	4.4 ± 1.2
